Measured values from different studies.
Compare with care: the assays were run in different laboratories. ± marks the error that the study gave.
H2-K1 29: H-2 class I histocompatibility antigen, K-D alpha chain, 29 (H2-K1, Mus musculus, UniProt P01902)
Chain of UniProt P01902 (whole entry, looked up): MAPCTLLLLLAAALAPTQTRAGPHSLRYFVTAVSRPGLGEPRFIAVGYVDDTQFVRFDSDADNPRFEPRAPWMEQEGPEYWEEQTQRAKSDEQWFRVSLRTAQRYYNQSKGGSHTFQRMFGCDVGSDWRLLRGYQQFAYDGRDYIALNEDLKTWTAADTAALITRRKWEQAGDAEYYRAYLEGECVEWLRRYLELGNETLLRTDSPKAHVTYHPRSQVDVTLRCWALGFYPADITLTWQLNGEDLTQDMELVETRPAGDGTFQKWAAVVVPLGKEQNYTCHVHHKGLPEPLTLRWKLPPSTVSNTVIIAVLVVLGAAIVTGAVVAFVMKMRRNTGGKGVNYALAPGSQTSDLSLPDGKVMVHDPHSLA
CXCR4: C-X-C chemokine receptor type 4 (CXCR4, Homo sapiens, UniProt P61073)
Chain of UniProt Q15116 (whole entry, looked up): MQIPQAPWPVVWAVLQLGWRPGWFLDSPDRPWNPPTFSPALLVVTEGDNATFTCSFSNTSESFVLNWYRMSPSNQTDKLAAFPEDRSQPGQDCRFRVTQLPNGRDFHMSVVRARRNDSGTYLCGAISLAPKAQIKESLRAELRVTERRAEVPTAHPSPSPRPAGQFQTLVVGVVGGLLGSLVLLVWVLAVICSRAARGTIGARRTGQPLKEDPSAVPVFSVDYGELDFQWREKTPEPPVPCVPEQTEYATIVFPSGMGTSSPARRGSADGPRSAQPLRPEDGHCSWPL
Chain of UniProt P54941 (whole entry, looked up): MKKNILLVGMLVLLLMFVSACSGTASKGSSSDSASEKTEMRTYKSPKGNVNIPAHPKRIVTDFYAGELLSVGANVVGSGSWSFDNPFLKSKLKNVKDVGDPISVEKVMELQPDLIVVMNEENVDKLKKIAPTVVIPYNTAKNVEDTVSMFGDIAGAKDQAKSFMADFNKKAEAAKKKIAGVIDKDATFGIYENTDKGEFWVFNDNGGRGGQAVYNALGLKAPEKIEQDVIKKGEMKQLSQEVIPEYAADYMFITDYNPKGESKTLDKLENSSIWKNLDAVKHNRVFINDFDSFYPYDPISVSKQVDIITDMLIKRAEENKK
Chain of UniProt P15090 (whole entry, looked up): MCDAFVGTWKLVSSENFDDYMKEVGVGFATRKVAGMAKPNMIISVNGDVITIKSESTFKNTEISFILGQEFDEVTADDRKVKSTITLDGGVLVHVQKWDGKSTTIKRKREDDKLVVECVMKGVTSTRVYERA

SMILES	target	test	conditions	measurement	value
CSCC[C@H](NC(=O)[C@H](Cc1ccc(O)cc1)NC(=O)[C@@H](N)CO)C(=O)N[C@@H](CC(C)C)C(=O)N[C@@H](CCC(N)=O)C(=O)N[C@@H](C)C(=O)N[C@@H](CC(C)C)C(=O)N[C@@H](CS)C(=O)O	H2-K1 29	binding, competitor, radioligand competition	purified MHC, mutant peptide, added: radiolabeled standard peptide	IC50	14900 nM
O=C1CCC(=O)N([O-])CCCCCNC(=O)CCC(=O)N([O-])CCCCCNC(=O)CCC(=O)N([O-])CCCCCN1.[Fe+3]	Iron(3+)-hydroxamate-binding protein YxeB (yxeB, Bacillus subtilis, UniProt P54941)	binding, Trp fluorescence quenching	pH 7.4, added: yxeB 100 nM	Kd	30 ± 9 nM
O=C(Nn1c(-c2cccc(Cl)c2)nc2ccccc2c1=O)c1ccccc1F	TRPM channel TRPM_PZQ (Schistosoma mansoni, UniProt A0A5K4F0X5)	–	–	EC50	1150 ± 110 nM
OC[C@H]1[C@@H](O)[C@@H](O)CN1Cc1ccc(I)cc1	Golgi alpha-mannosidase IIb (Drosophila melanogaster, UniProt Q9VF33)	Dixon plot	added: pNP-Man 0.5 to 4 mM	Ki	50000 nM
COc1ccccc1-c1nnc2n1N=C(c1ccc(N3CCOCC3)cc1)CS2	CXCR4	β-arrestin recruitment, agonist	–	EC50	7810 nM
CC[C@H](C)[C@H](NC(=O)[C@H](CS)NC(=O)[C@H](CC(C)C)NC(=O)[C@H](C)NC(=O)[C@H](CCC(N)=O)NC(=O)[C@H](CC(C)C)NC(=O)[C@H](CCSC)NC(=O)[C@H](Cc1ccc(O)cc1)NC(=O)[C@@H](N)CO)C(=O)O	H2-K1 29	binding, competitor, radioligand competition	purified MHC, mutant peptide, added: radiolabeled standard peptide	IC50	82 nM
O=C(O)CCCOc1ccc(F)cc1-c1cc(-c2ccccc2C(F)(F)F)n(-c2ccccc2)n1	FABP4 (Homo sapiens, UniProt P15090)	ligand displacement, fluorescence	–	Kd	238 nM
CCOc1ccccc1-c1nnc2n1N=C(c1ccc(N3CCCC3=O)cc1)CS2	CXCR4	β-arrestin recruitment, agonist	–	EC50	50 nM
CC[C@H](C)[C@H](NC(=O)[C@H](CCC(=O)O)NC(=O)[C@H](CCCCN)NC(=O)[C@H](CC(C)C)NC(=O)[C@H](CCCCNC(=O)[C@H](CC(C)C)NC(=O)[C@H](CCCNC(=N)N)NC(=O)[C@H](Cc1c[nH]cn1)NC(=O)[C@H](Cc1c[nH]cn1)NC(=O)[C@H](Cc1c[nH]cn1)NC(=O)[C@@H](N)CO)NC(=O)[C@H](CC(C)C)NC(=O)[C@H](CCCNC(=N)N)NC(=O)[C@H](Cc1c[nH]cn1)NC(=O)[C@H](Cc1c[nH]cn1)NC(=O)[C@H](Cc1c[nH]cn1)NC(=O)[C@@H](N)CO)C(=O)N[C@@H](C)C(=O)N[C@@H](CC(N)=O)C(=O)N[C@@H](CO)C(=O)N1CCC[C@H]1C(=O)N[C@H](C(=O)N[C@@H](CCC(N)=O)C(=O)N[C@@H](Cc1ccccc1)C(=O)N[C@@H](Cc1c[nH]c2ccccc12)C(=O)N[C@@H](CCCNC(=N)N)C(=O)N[C@@H](CCSC)C(=O)N[C@H](C(=O)N[C@@H](C)C(=O)N[C@@H](CCCNC(=N)N)C(=O)N[C@@H](CC(N)=O)C(=O)N[C@H](C(=O)N[C@@H](CC(C)C)C(=O)NCC(=O)N[C@@H](CC(N)=O)C(=O)NCC(=O)N[C@@H](C)C(=O)N[C@@H](CCCCN)C(=O)N[C@@H](CCC(N)=O)C(=O)N[C@@H](CO)C(=O)N[C@@H](CC(C)C)C(=O)N[C@@H](CC(N)=O)C(=O)N[C@H](C(=O)N[C@@H](CCC(=O)O)C(=O)N[C@@H](Cc1c[nH]cn1)C(=O)N[C@@H](C)C(=O)O)[C@@H](C)CC)[C@@H](C)O)C(C)C)[C@@H](C)O	PDCD1 (Homo sapiens, UniProt Q15116)	binding, SPR	pH 7.4	Kd	11.9 nM

Repeated from above:
SMILES	target	test	conditions	measurement	value
OC[C@H]1[C@@H](O)[C@@H](O)CN1Cc1ccc(I)cc1	Golgi alpha-mannosidase IIb (Drosophila melanogaster, UniProt Q9VF33)	Dixon plot	added: pNP-Man 0.5 to 4 mM	Ki	50000 nM
